# Published values from different studies.
# Lines come from different studies, so protocols differ. Several values in a cell are separate wells, animals, samples, runs or records. ± gives the spread as reported.
# YAP1 WW1 domain: Transcriptional coactivator YAP1, WW1 domain (YAP1, Homo sapiens, UniProt P46937)
# CFTR del508-508: Cystic fibrosis transmembrane conductance regulator (CFTR, Homo sapiens, UniProt P13569, del508-508)
# Calm1 D21A/D57A: Calmodulin-1 (Calm1, Rattus norvegicus, UniProt P0DP29, D21A/D57A)
# Kelch domain-containing protein 2: Kelch domain-containing protein 2 (UniProt Q9Y2U9)
# KCNT1: Potassium channel subfamily T member 1 (KCNT1, Homo sapiens, UniProt Q5JUK3)
# YAP1 WW2 domain: Transcriptional coactivator YAP1, WW2 domain (YAP1, Homo sapiens, UniProt P46937)
# ERAP1 L733R: Endoplasmic reticulum aminopeptidase 1 (ERAP1, Homo sapiens, UniProt Q9NZ08, L733R)
Molecule,target,test,test system,setting,scale,quantity,result
COc1ccc(-c2nc(OCC(F)(F)F)nn2-c2ccc(OC)cc2)cc1 [carbon-11 labelled],"Prostaglandin G/H synthase 1 (Macaca mulatta, UniProt F6S984)",PET Logan analysis,"rhesus monkey, whole brain",first 80 min data,baseline: full 120 min scan,VT deviation,≤ 10%
CC(C)C[C@H](NC(=O)[C@@H](NC(=O)[C@@H](N)[C@@H](C)O)C(C)C)C(=O)N1CCC[C@H]1C(=O)N1CCC[C@H]1C(=O)N1CCC[C@H]1C(=O)N1CCC[C@H]1C(=O)N[C@@H](Cc1ccc(O)cc1)C(=O)N[C@@H](CCCNC(=N)N)C(=O)N[C@@H](Cc1c[nH]cn1)C(=O)N[C@@H](CCCNC(=N)N)C(=O)N[C@@H](CC(N)=O)C(=O)O,YAP1 WW1 domain,"binding, ITC",,"pH 7.0, 25 °C, WW1 domain",,ΔH,-13.3 ± 0.49 kcal/mol
Cc1cc(C)c2cc(C#N)c(NCCNC(=O)c3ccccn3)nc2c1,CFTR del508-508,"ΔF508-CFTR correction, corrector",FRT,"up to 25 µM, 37 °C, together with: forskolin 20 µM + genistein 50 µM",,EC50,inactive
GSRPQRLLWQTAVRHITEQRFIHGH,Calm1 D21A/D57A,"Ca2+ dissociation, stopped-flow quin-2 fluorescence",peptide,"2 µM, pH 7.4, 22 °C, together with: Ca2+-calmodulin complex",,koff2,0.29 ± 0.06 s⁻¹
DEGEVIVFGG,Kelch domain-containing protein 2,native mass spectrometry,"peptide, 200 mM ammonium acetate","20 µM Kelch domain-containing protein 2, pH 7",baseline: total Kelch domain-containing protein 2 signal,fraction of protein bound,1.7%
CC(C)C[C@H](NC(=O)[C@@H](NC(=O)[C@@H](N)[C@@H](C)O)C(C)C)C(=O)N1CCC[C@H]1C(=O)N1CCC[C@H]1C(=O)N1CCC[C@H]1C(=O)N1CCC[C@H]1C(=O)N[C@@H](Cc1ccc(O)cc1)C(=O)N[C@@H](C)C(=O)N[C@@H](Cc1c[nH]cn1)C(=O)N[C@@H](CCCNC(=N)N)C(=O)N[C@@H](CC(N)=O)C(=O)O,YAP1 WW1 domain,"binding, ITC",,"pH 7.0, 25 °C, WW1 domain",,TΔS,-3.95 ± 0.42 kcal/mol
IKPAKRMKFKTVCYLLVQLMHCRKMFKA,Calm1 D21A/D57A,"Ca2+ dissociation, stopped-flow quin-2 fluorescence",peptide,"2 µM, pH 7.4, 22 °C, together with: Ca2+-calmodulin complex",,koff2,0.84 s⁻¹ and 0.8 s⁻¹
COc1ccc([N+](=O)[O-])cc1Nc1nc2c(s1)CCCCc1nc(NC(=O)C(C)(C)C)sc1-2,CFTR del508-508,"iodide influx, corrector, YFP halide quenching",FRT cells expressing YFP-H148Q/I152L,"16 to 20 h, 37 °C, genistein 50 µM, together with: forskolin 20 µM",,Vmax,243 µM/s
CCOc1ccccc1NC(=O)N1CC(c2nc(-c3ccsc3)no2)C1,KCNT1,"Tl+ flux, activator",HEK293 expressing KCNT1,30 µM,baseline: loxapine maximum response,efficacy,< 10%
CSCC[C@H](NC(=O)[C@@H]1CCCN1C(=O)[C@@H](NC(=O)[C@H](Cc1ccc(O)cc1)NC(=O)[C@H](C)NC(=O)[C@@H]1CCCN1C(=O)[C@@H]1CCCN1C(=O)[C@@H]1CCCN1C(=O)[C@H](CO)NC(=O)[C@H](Cc1c[nH]cn1)NC(=O)CN)[C@@H](C)O)C(=O)N[C@@H](CO)C(=O)O,YAP1 WW2 domain,"binding, ITC",,"pH 7.0, 25 °C, WW2 domain",,ΔH,-4.23 ± 0.45 kcal/mol
O=S(=O)(Sc1ccccc1Br)c1ccccc1Br,tubulin,"colchicine binding, [3H]colchicine binding",,"50 µM, 10 min, 37 °C, together with: [3H]colchicine 5.0 µM",,inhibition,90 ± 0.3%
O=c1c(O)c(-c2ccc(O)c(O)c2)oc2cc(O)cc(O)c12,"UGT1A6 (Homo sapiens, UniProt P19224)","enzyme activity, inhibitor",,50 µM,,remaining activity,23.1%
CC[C@H](C)[C@H](NC(=O)[C@H](CC(N)=O)NC(=O)[C@H](Cc1c[nH]cn1)NC(=O)[C@@H](NC(=O)[C@H](CCC(N)=O)NC(=O)[C@H](CCCNC(=N)N)NC(=O)[C@@H](NC(=O)[C@@H](N)CCC(=O)O)[C@@H](C)CC)[C@@H](C)O)C(=O)N[C@@H](Cc1ccccc1)C(=O)N[C@@H](Cc1ccccc1)C(=O)N[C@@H](CC(N)=O)C(=O)N[C@@H](Cc1ccccc1)C(=O)N[C@@H](Cc1ccccc1)C(=O)N[C@@H](CCCCN)C(=O)N[C@@H](CCCNC(=N)N)C(=O)N[C@@H](CCCNC(=N)N)C(=O)O,"histidine kinase ComD (Streptococcus pneumoniae serotype 4, UniProt A0A0H2US84)","reporter gene, agonist","Streptococcus pneumoniae, TIGR4 pcomX::lacZ",10 µM,baseline: native CSP2,ComD2 activation,> 75%
Nc1ncnc2c1ncn2[C@@H]1O[C@H](COP(=O)(O)OP(=O)(O)OP(=O)(O)O)[C@@H](O)[C@H]1O,"spoIVA (Bacillus subtilis, UniProt P35149, K30A)","ATP binding, filter binding",,"concentration not given, pH 7.5, 30 °C, Walker A mutant at highest concentration, together with: 1 mM MgCl2",baseline: wild type,fold reduction in binding,> 23 fold
Nc1ncnc2c1ncn2[C@@H]1O[C@H](COP(=O)(O)OP(=O)(O)OP(=O)(O)O)[C@@H](O)[C@H]1O,"HARS1 (Homo sapiens, UniProt P12081)","thermal stability, DSF",,,,ΔTm,2 °C
IINFEKL,ERAP1 L733R,substrate,peptide,"pH 8.0, 27 °C, mutant L733R, together with: L-AMC, peptide activator 100 µM",,Hill coefficient,1
CCOc1ccccc1S(=O)(=O)N1CC(c2nc(-c3ccccc3C)no2)C1,KCNT1,"Tl+ flux, activator",HEK293 expressing KCNT1,30 µM,baseline: loxapine maximum response,efficacy,< 10%
CC(=O)Oc1ccccc1C(=O)O,"Degenerin mec-4 (mec-4, Caenorhabditis elegans, UniProt P24612, A713T)","ion current, two-electrode voltage clamp",Xenopus oocytes coexpressing MEC-2,"30 µM, -85 mV","baseline: uninjected oocytes, positive inhibition, negative potentiation",current change,-4.75 µA
Brc1cccc(SSc2cccc(Br)c2)c1,tubulin,"colchicine binding, [3H]colchicine binding",,"50 µM, 10 min, 37 °C, together with: [3H]colchicine 5.0 µM",,inhibition,17 ± 4%
Cc1cc(C)c2cc(C#N)c(N3CCN(C(=O)c4cccnc4)CC3)nc2c1,CFTR del508-508,"iodide influx, potentiator",FRT expressing ΔF508-CFTR and YFP,"up to 50 µM, low-temperature rescued, together with: forskolin 20 µM",,EC50,inactive
Nc1ncnc2c1ncn2[C@@H]1O[C@H](COP(=O)(O)OP(=O)(O)OP(=O)(O)O)[C@@H](O)[C@H]1O,"ATP1A1 (Canis lupus familiaris, UniProt P50997)",,,"4 °C, preparation A, together with: 45 mM Na+ arginine replacement",,koff,1.5 ± 0.36 s⁻¹
"LRHYLNLLTRORY (acetyl-Leu28, acetyl-Leu31)",neuropeptide Y receptor Y2 human,agonist,"peptide, hY2-CHO","100 nM, 30 min, 37 °C",baseline: no unlabeled agonist,surface receptor depletion,67.8 ± 2.9%
CCOc1ccccc1S(=O)(=O)[C@H]1C[C@@H](c2nc(-c3ccc(F)cc3)no2)C1,KCNT1,"Tl+ flux, inhibitor",HEK293 expressing KCNT1,30 µM,,activity class,inactive
CC(C)[C@H](NC(=O)[C@@H](N)[C@@H](C)O)C(=O)N[C@@H](C)C(=O)N1CCC[C@H]1C(=O)N1CCC[C@H]1C(=O)N1CCC[C@H]1C(=O)N1CCC[C@H]1C(=O)N[C@@H](Cc1ccc(O)cc1)C(=O)N[C@@H](CCCNC(=N)N)C(=O)N[C@@H](Cc1c[nH]cn1)C(=O)N[C@@H](CCCNC(=N)N)C(=O)N[C@@H](CC(N)=O)C(=O)O,YAP1 WW2 domain,"binding, ITC",,"pH 7.0, 25 °C, WW2 domain",,TΔS,-7.47 ± 0.09 kcal/mol
O=C(Nc1ccn(Cc2ccc(O)cc2C(F)(F)F)n1)c1c(F)cccc1F,"Calcium release-activated calcium channel protein 1, with STIM1 (ORAI1, Homo sapiens, UniProt Q96D31, E106D)","ion current, inhibitor, whole-cell patch clamp",,"E106D pore mutant vs wild type, together with: STIM1 co-expression",baseline: E106D mutant over wild type,fold shift in potency,≥ 10 fold
Nc1cc(COc2c(Cl)cc(C[C@H](N)C(=O)O)cc2Cl)c2oc(-c3ccccc3)nc2c1,"SLC7A5 (Homo sapiens, UniProt Q01650)","leucine uptake, inhibitor",HEK293 expressing human LAT1,"20 µM, 30 min, read 24 h after washout, together with: L-[14C]leucine 1 µM",baseline: untreated,remaining activity,~90%
IINFEKE,ERAP1 L733R,substrate,peptide,"pH 8.0, 27 °C, mutant L733R, together with: L-AMC, peptide activator 100 µM",,K1/2 of L-AMC,0.23 ± 0.08 mM
CC(C)C[C@H](NC(=O)[C@@H](NC(=O)[C@@H](N)[C@@H](C)O)C(C)C)C(=O)N1CCC[C@H]1C(=O)N1CCC[C@H]1C(=O)N1CCC[C@H]1C(=O)N1CCC[C@H]1C(=O)N[C@@H](Cc1ccc(O)cc1)C(=O)N[C@@H](CCCNC(=N)N)C(=O)N[C@@H](Cc1c[nH]cn1)C(=O)N[C@@H](C)C(=O)N[C@@H](CC(N)=O)C(=O)O,YAP1 WW2 domain,"binding, ITC",,"pH 7.0, 25 °C, WW2 domain",,ΔG,-5.57 ± 0.11 kcal/mol
COc1ccc(Cl)cc1Nc1nc2c(s1)CCCc1nc(NC(=O)C(C)C)sc1-2,CFTR del508-508,"iodide influx, corrector, YFP halide quenching",FRT cells expressing YFP-H148Q/I152L,"16 to 20 h, 37 °C, genistein 50 µM, together with: forskolin 20 µM",,Vmax,329 µM/s
Nc1ccc(-c2nc([C@H]3CCc4cc(-c5cc(Cl)ccc5-n5cnnn5)cc(=O)n43)c(F)[nH]2)c(F)n1,"F11 (Homo sapiens, UniProt P03951)",factor XI coagulant activity,"human, blood","oral, 150 mg once daily, 14 days, fed",,maximum inhibition,85 ± 5.2%
CCN(CC)c1ccc2c(C)c(CCN3CC4(CCN(c5ncnc6[nH]ncc56)CC4)NC3=O)c(=O)oc2c1,human WIL-FL light chain dimer,"proteolysis, stabilizer, proteinase K digestion",,"10 µM, 2 h, 37 °C, 1% DMSO, together with: proteinase K 50 nM",baseline: vehicle,fold protection,> 0.99
N[C@@H](Cc1c[nH]cn1)C(=O)O,"HARS1 (Homo sapiens, UniProt P12081, Y330C)",substrate,,"pH 7.5, together with: 10 mM ATP, 5 µM tRNAHis",,Km,203 ± 83.2 µM
CC1=C(/C=C/C(C)=C/C=C/C(C)=C/CO)C(C)(C)CCC1,"Retinol-binding protein 3 (RBP3, Bos taurus, UniProt P12661)",surface plasmon resonance,,"pH 7.4, 25 °C",,koff,0.08 ± 0.8 s⁻¹
CC(C)C[C@H](NC(=O)[C@@H](NC(=O)[C@@H](N)[C@@H](C)O)C(C)C)C(=O)N1CCC[C@H]1C(=O)N1CCC[C@H]1C(=O)N1CCC[C@H]1C(=O)N[C@@H](C)C(=O)N[C@@H](Cc1ccc(O)cc1)C(=O)N[C@@H](CCCNC(=N)N)C(=O)N[C@@H](Cc1c[nH]cn1)C(=O)N[C@@H](CCCNC(=N)N)C(=O)N[C@@H](CC(N)=O)C(=O)O,YAP1 WW1 domain,"binding, ITC",,"pH 7.0, 25 °C, WW1 domain",,ΔG,-5.74 ± 0.07 kcal/mol
FC(F)=Cc1cc(C(F)(F)F)cc(C(F)(F)F)c1,"CD209 antigen (CD209, Homo sapiens, UniProt Q9NNX6)","activator, plate-based HRP",,"500 µM, overnight, 4 °C or RT",baseline: DMSO control,HRP binding,≥ 50%
CCCCCCCCCCCCCCCCOc1ccc(/C=C/C(O)=C/C(=O)/C=C/c2ccc(O)c(OC)c2)cc1OC,"Protein kinase C epsilon type, C1B domain (PRKCE, Homo sapiens, UniProt Q02156)",,buffer,"5×1 µM, 1 h, 25 °C, protein excess",,emission maximum,560 nm
FLFGG,Kelch domain-containing protein 2,native mass spectrometry,"peptide, 200 mM ammonium acetate","20 µM Kelch domain-containing protein 2, pH 7",baseline: total Kelch domain-containing protein 2 signal,fraction of protein bound,0.6%
O=S(=O)(c1ccc(Cl)cc1)N1CC(c2nc(-c3ccsc3)no2)C1,KCNT1,"Tl+ flux, inhibitor",HEK293 expressing KCNT1,30 µM,,activity class,inactive
